Measured values gathered from unrelated publications.
Every numbered part comes from another study and shows a few of its results, in no order.

Sample 1
Target: RNA binding protein fox-1 homolog 2, RRM domain, GST-SBP tag (RBFOX2, Homo sapiens, UniProt O43251-10, residues 100-194)
Method: RNA Bind-n-Seq
Molecule type: RNA
Medium: in vitro
Tested at: 365 nM
Setting: natural RNA segment, single round, ends assumed
Relative to: no-protein control
Direction: higher = stronger binding
`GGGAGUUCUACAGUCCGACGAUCAAACUAAAAAUGAAUCAUAAAAAACAAAUGGGUACAUGAUAUGGUAAGAUAAAUGAGGGGGAAAAAAACUAAAAAUAUGCUUUUGUCCCAAAUAUCUCAUUUUACAAGGUUGGAAUUCUCGGGUGCCAA`: “RBNS enrichment (R)” 0.459.
Under “RBNS enrichment (R)”, `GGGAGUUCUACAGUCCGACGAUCGAGAUAGGAAGGUCAUUUCCAUGUAUGCAUAAUAAUCCUGCAAAGUACAGGUACUUUGUCUAAGAAACAUUGGAAGCAGGUUAAAUGUUUUGUAAACUUUGAAAUAUAUGUGGAAUUCUCGGGUGCCAA` is recorded as 0.729.
Under “RBNS enrichment (R)”, `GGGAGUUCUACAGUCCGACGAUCUAAAACCAUUAGUAUUUUACUUUGACUCAGUACCUUGGUUUGUCCCAACUGAAUAAGAGUUUGUAUUGUGUGUGUGUUCCUUGAAACCAAUGAUUUUCAAACUUUACAGCUGGAAUUCUCGGGUGCCAA` is recorded as 0.465.
`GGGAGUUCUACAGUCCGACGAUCCCUGCUCUCUCUGGCCUUGGGUCAUGAGGGUAUAAGGAAUAAACAUGGUGAGCUUGUUCUCCUUUUGAACCCCUUGUUCUUUUUUGUUACCGAGAGGAGGCAAGGUGCAGUGGAAUUCUCGGGUGCCAA` — result for “RBNS enrichment (R)”: 0.51.
`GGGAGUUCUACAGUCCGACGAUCAAACUUAGUUCCCAAAUAAAUCAAUCCUGUCUUUCCCAUCUUCGAUGUUGCUAAUAUUAAGGCUUCAGGGCUACUUUUAUCAACAUGCCUGUCUUCAAGAUCCCAGUUUAUGGAAUUCUCGGGUGCCAA`: “RBNS enrichment (R)” 0.93.
`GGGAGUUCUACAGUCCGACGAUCAUGGAACUGUGAGUUCAUUAAACCUCUUUUUCUUCAUAAAUUACCCAGUCUCGGGUAUGUCUUUAUCAGCAGUGUGAAAACAGACUAAUACACCACUCCUCUACCUUCUUUGGAAUUCUCGGGUGCCAA`: “RBNS enrichment (R)” 0.448.
For `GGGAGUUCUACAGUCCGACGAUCUGAGAUUUUAGAAUCUAAGAUAGCACGAGUGGGUAUAGAAGAUGGAAGAUACCGAUAAAUAACAUGGUUUAAGUGUCAAUAAAAUUCAUUCGAAGAGAUCAGGCGCGGUGUGGAAUUCUCGGGUGCCAA`, “RBNS enrichment (R)” read 2.11.
`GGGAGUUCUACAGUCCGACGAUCUAAGUUGCAUGCACUGCGGGACUUGCAGUCAGCUGGCUGCCAUUAUUCAUAGCCGCUUGGUAUGCAGUAACUUGGGGUGGAGGUAAAACACUAACAAAGGGGGCUUUUCUUGGAAUUCUCGGGUGCCAA` — result for “RBNS enrichment (R)”: 2.57.

Sample 2
Target: Prothrombin, mature alpha-thrombin (F2, Homo sapiens, UniProt P00734)
Method: aptamer microarray, sandwich
Molecule type: DNA with 2'F-ANA
Medium: in vitro
Tested at: 200 nM
Setting: whole 15-mer aptamer, many near background
With: Cy3 exosite-II aptamer, 400 nM
Direction: higher = stronger binding
Strand: GGTTGGTGTGGTTGG
`2'F-ANA at 1 2 3 4 5 7 8 10 13 15`: “mean fluorescence intensity” 50.8 a.u.
Under “mean fluorescence intensity”, `2'F-ANA at 1 3 5 9 11 12 13 15` is recorded as 75.3 a.u.
For `2'F-ANA at 2 4 5 8 10 11 12 13 15`, “mean fluorescence intensity” read 45.4 a.u.
For `2'F-ANA at 1 5 6 8 9 10 11 12 14 15`, “mean fluorescence intensity” read 60.7 a.u.
Under “mean fluorescence intensity”, `2'F-ANA at 1 2 5 6 8 9 11 13 15` is recorded as 63.9 a.u.
`2'F-ANA at 1 3 6 7 8 9 11`: “mean fluorescence intensity” 258 a.u.
`2'F-ANA at 1 2 3 4 5 6 7 9 11 13`: “mean fluorescence intensity” 51.6 a.u.
Under “mean fluorescence intensity”, `2'F-ANA at 1 3 5 6 13 14 15` is recorded as 49.3 a.u.
For `2'F-ANA at 1 2 3 6 8 10 11 14`, “mean fluorescence intensity” read 53.9 a.u.
Under “mean fluorescence intensity”, `2'F-ANA at 3 6 8 9 10 11 12 13 14` is recorded as 339 a.u.
`2'F-ANA at 9 11 14`: “mean fluorescence intensity” 166 a.u.
Under “mean fluorescence intensity”, `2'F-ANA at 3 4 5 7 8 9 12 14 15` is recorded as 142 a.u.
Under “mean fluorescence intensity”, `2'F-ANA at 1 2 4 7 9 10 14 15` is recorded as 52 a.u.
`2'F-ANA at 4 6 7 8 9 11 13 14 15`: “mean fluorescence intensity” 73.8 a.u.
Under “mean fluorescence intensity”, `2'F-ANA at 2 3 6 7 11 12 13 15` is recorded as 812 a.u.
`2'F-ANA at 3 7 8 9 10 12 14` — result for “mean fluorescence intensity”: 436 a.u.
Under “mean fluorescence intensity”, `2'F-ANA at 4 9 11 15` is recorded as 249 a.u.
`2'F-ANA at 1 2 4 5 6 8 12` — result for “mean fluorescence intensity”: 110 a.u.
For `2'F-ANA at 3 5 8 11 12 15`, “mean fluorescence intensity” read 195 a.u.
For `2'F-ANA at 4 5 7 9 10 12 13 14`, “mean fluorescence intensity” read 41.9 a.u.
`2'F-ANA at 1 3 8 10 11 14 15`: “mean fluorescence intensity” 65 a.u.
Under “mean fluorescence intensity”, `2'F-ANA at 2 3 4 6 7 9 11 13 14` is recorded as 173 a.u.
`2'F-ANA at 1 2 3 4 5 9 11 13 14 15`: “mean fluorescence intensity” 47.6 a.u.
`2'F-ANA at 2 3 5 7 10 12 13 15` — result for “mean fluorescence intensity”: 58.4 a.u.
`2'F-ANA at 1 2 3 9 10 11 12 13 15`: “mean fluorescence intensity” 83.5 a.u.

Sample 3
Target: PABPC1L2, full length, GST fusion (mouse, UniProt A0ABA7IW68)
Method: RNAcompete
Molecule type: RNA
Medium: in vitro
Tested at: 20 nM
Setting: 7-mer, probes averaged, single round
Relative to: mean of 7-mers
Direction: higher = stronger binding
Residues (chain): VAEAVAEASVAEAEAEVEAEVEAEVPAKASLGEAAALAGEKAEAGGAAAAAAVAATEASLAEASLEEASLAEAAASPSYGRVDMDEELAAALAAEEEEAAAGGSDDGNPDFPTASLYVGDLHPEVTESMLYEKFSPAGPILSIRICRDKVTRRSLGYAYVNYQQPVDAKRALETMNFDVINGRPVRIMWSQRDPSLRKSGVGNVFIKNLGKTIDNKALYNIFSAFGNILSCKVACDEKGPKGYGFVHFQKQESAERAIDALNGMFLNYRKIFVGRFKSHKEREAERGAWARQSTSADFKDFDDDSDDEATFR
For `ACGAUAU`, the 7-mer Z-score was 0.017.
`CAUGAGA` gave a 7-mer Z-score of 0.0406.
`GUGCUUU` gave a 7-mer Z-score of -0.0899.
The 7-mer Z-score of `CCUUUCU` is reported as -0.55.
For `GUUCUAG`, the 7-mer Z-score was -0.195.
`AGGCGAG` gave a 7-mer Z-score of 0.321.
`AAGCUAC` gave a 7-mer Z-score of 0.115.
`CUCGUAG` has a 7-mer Z-score of -0.251.
With `ACGUGAC` the 7-mer Z-score was -0.142.
For `AUCAGGC`, the 7-mer Z-score was 0.0714.
With `ACCAAGC` the 7-mer Z-score was -0.126.
`AUGGCAC` has a 7-mer Z-score of -0.0844.
For `UGAAGAC`, the 7-mer Z-score was -0.126.
The 7-mer Z-score of `UAGUGAG` is reported as -0.26.
With `CUGUCAA` the 7-mer Z-score was -0.251.
The 7-mer Z-score of `GCGCACG` is reported as -0.115.
`CCGUCCG` gave a 7-mer Z-score of -0.469.
`UAUUGUC` gave a 7-mer Z-score of -0.325.
For `GCACCAU`, the 7-mer Z-score was -0.0355.
For `AAAGUCA`, the 7-mer Z-score was 1.27.
`ACGCGCC` has a 7-mer Z-score of -0.249.
With `CUCCCUA` the 7-mer Z-score was -0.293.
`GUGGACC` has a 7-mer Z-score of 0.148.
The 7-mer Z-score of `AAUCUGG` is reported as 0.273.
The 7-mer Z-score of `AAACGUU` is reported as 0.171.

Sample 4
Target: Interferon regulatory factor 5, full length, phosphomimetic (IRF5, Homo sapiens, UniProt Q13568-2, residues 1-514, S451D/S453D/S456D/S462D)
Method: protein-binding microarray
Molecule type: double-stranded DNA, one strand shown
Medium: in vitro
Tested at: 940 nM top
Setting: 60-bp whole probe
With: salmon DNA 0.4 mg/ml
Relative to: random background probes
Direction: higher = stronger binding
Constant ends, left off below: GCCTAGCAC … GTCTTGATTCGCTTGACGCTGCTG
`GACGGTATCAACTATCGGGACGTGCTA`: “fitted relative affinity” 1.2 z-score.
`GAGGGTTTCGACACTGGGGACGTGCTA`: “fitted relative affinity” 5.12 z-score.
`CTCTATTGCTTTCTCTTTCAGTGCTAG` — result for “fitted relative affinity”: 2 z-score.
`GACGATTTAAGTCTCGAGACGTGCTAG`: “fitted relative affinity” 1.09 z-score.
`GACGGTCTCCTACTGCCGACGTGCTAG`: “fitted relative affinity” 0.145 z-score.
`GACGGTATCGACTCTCGGGACGTGCTA`: “fitted relative affinity” 4.7 z-score.
`GACGATCTCAGTCTTGAGACGTGCTAG` — result for “fitted relative affinity”: 0.166 z-score.
`TCACAAGTTTCACGTCTTACTGTGCTA`: “fitted relative affinity” 1.63 z-score.
`GACGCTTTCGGGTTTCGAGACGTGCTA`: “fitted relative affinity” 4.23 z-score.
`GTAGGTATCGGTCTCGGTTAGTGCTAG` — result for “fitted relative affinity”: 9.51 z-score.
For `TCATCTCTCTATTCAGAACTGTGCTAG`, “fitted relative affinity” read 1.34 z-score.
`GACGGTATCCTTATCCTAACGTGCTAG`: “fitted relative affinity” 0.19 z-score.
For `GACGATCTCAGACTGGACACGTGCTAG`, “fitted relative affinity” read -0.287 z-score.
Under “fitted relative affinity”, `GACGGTTTCGGGTATCCGGACGTGCTA` is recorded as 10.1 z-score.
For `ATCATTTTCTCTGTTCTAGAGTGCTAG`, “fitted relative affinity” read 2.32 z-score.
Under “fitted relative affinity”, `TTAGAACTGGGGACGGGATTAGTGCTA` is recorded as 0.415 z-score.
`TCACCTATAGGTTTCTAACTGTGCTAG`: “fitted relative affinity” 0.588 z-score.
Under “fitted relative affinity”, `AGGAATTTCCCACTTTCACTGTGCTAG` is recorded as 1.93 z-score.
Under “fitted relative affinity”, `TCATTTTTTAATTGAGAACTGTGCTAG` is recorded as -0.225 z-score.
